Measured values pooled from the literature.
Numbered parts are unrelated; each lists some results of a single study. Values joined by “and” are separate records of one study, mostly repeats; a detail may differ.
Sequence of UniProt P11802 (whole entry, looked up): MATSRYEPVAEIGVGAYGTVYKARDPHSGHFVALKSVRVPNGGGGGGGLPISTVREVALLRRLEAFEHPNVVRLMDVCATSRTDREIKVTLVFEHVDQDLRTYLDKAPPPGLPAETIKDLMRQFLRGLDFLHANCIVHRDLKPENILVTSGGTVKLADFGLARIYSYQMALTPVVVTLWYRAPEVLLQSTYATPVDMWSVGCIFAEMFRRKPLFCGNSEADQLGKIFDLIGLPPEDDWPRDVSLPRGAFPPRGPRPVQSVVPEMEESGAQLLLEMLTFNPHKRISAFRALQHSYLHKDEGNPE
Sequence of UniProt Q04912 (whole entry, looked up): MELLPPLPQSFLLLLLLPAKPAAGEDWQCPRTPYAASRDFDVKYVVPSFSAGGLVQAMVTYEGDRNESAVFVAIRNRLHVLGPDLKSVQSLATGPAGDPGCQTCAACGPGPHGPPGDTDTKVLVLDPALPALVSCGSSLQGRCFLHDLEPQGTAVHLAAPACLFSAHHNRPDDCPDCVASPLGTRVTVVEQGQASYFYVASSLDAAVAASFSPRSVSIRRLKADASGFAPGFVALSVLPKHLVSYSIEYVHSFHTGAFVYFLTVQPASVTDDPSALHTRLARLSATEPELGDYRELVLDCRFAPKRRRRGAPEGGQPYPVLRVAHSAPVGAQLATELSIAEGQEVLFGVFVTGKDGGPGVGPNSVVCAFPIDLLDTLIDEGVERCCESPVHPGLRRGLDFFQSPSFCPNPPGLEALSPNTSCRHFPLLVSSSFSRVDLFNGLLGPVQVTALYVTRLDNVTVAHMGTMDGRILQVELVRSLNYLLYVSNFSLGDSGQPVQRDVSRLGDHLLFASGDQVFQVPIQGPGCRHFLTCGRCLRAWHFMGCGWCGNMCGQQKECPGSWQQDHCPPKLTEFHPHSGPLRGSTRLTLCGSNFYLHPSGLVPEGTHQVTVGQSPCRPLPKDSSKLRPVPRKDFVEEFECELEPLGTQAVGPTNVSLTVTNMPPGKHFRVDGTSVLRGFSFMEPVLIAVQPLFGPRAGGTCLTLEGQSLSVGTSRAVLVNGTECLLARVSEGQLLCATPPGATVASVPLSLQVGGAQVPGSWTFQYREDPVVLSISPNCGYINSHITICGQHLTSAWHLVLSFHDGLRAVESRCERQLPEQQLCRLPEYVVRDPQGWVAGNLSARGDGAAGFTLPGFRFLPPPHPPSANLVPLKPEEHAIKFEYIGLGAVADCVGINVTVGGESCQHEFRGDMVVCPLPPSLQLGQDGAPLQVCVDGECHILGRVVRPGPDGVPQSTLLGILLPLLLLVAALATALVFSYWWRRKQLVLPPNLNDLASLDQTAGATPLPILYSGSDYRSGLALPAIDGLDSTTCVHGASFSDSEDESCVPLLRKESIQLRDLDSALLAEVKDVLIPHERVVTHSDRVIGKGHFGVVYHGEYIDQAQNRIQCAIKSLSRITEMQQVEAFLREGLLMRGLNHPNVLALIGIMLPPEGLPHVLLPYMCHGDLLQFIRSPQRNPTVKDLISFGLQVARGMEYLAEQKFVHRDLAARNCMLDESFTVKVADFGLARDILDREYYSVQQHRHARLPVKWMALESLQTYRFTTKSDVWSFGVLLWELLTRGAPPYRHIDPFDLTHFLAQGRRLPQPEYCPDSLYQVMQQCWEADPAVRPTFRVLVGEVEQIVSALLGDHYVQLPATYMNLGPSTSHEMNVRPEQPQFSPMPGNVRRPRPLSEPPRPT
Sequence of UniProt Q86UX6 (whole entry, looked up): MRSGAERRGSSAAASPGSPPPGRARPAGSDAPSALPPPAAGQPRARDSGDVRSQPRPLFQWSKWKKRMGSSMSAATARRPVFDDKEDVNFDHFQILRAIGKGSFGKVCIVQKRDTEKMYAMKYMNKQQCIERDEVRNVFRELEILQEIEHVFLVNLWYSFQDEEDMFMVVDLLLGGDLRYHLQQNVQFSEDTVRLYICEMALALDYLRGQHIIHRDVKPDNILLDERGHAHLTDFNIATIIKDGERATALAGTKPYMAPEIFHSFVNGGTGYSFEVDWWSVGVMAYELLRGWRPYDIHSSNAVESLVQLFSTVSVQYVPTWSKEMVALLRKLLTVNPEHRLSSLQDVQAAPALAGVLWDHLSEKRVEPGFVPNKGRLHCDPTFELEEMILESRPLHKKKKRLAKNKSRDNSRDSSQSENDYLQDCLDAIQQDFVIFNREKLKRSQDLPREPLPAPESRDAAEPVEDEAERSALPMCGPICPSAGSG
Sequence of UniProt Q9UEE5 (whole entry, looked up): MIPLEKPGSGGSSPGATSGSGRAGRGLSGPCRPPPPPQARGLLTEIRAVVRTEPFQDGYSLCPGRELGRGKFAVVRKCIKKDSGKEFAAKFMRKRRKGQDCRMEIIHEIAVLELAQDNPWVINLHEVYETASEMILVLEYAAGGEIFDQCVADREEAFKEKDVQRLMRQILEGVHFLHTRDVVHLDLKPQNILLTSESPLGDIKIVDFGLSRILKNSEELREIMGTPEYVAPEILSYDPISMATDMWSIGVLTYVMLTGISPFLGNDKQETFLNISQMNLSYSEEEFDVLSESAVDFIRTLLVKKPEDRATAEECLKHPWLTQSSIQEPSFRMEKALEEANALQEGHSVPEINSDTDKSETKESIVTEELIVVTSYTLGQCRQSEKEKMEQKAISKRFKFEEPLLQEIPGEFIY
Sequence of UniProt Q8TDX7 (whole entry, looked up): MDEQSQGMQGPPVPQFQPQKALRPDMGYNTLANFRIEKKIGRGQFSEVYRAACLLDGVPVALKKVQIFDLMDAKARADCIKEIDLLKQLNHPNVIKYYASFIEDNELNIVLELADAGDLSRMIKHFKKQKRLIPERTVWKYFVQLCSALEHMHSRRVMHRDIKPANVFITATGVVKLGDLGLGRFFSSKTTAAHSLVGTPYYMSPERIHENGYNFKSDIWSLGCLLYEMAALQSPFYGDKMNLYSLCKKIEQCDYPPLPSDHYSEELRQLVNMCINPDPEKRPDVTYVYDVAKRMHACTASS

Block 1
SMILES: CCN1/C(=C/C=C2\CCCC(/C=C/C3=[N+](CC)c4ccccc4C3(C)C)=C2NCCCCCCCCN2CCC(Nc3nc4ccccc4n3Cc3ccc(F)cc3)CC2)C(C)(C)c2ccccc21
Cell line: U-87 MG
Tested at: concentration not given
Relative to: DMSO
item	log2 fold change
NIBAN1 mRNA	1.02
DCPS mRNA	-1.28
SEPHS1 mRNA	-0.909
CNTRL mRNA	-1.59
LIMS1 mRNA	1.24
AGFG2 mRNA	-1.09
CTH mRNA	1.89
ABLIM3 mRNA	1.3
LRRN3 mRNA	-1.05
GPR17 mRNA	-7.07
HSPE1-MOB4 mRNA	1.74

Block 2
Cell line: MDA-MB-468
Observed: cell viability
Method: CellCounting-Lite
Tested at: 8.23 nM
Temperature: 37 °C
Reading: higher = more viable cells
SMILES	luminescence signal
CCn1cnc2c(NCc3nc4cc(Cl)c(Cl)cc4[nH]3)nc(N3CCN(Cc4ccncc4)CC3)nc21	411000 a.u. and 463000 a.u. and 421000 a.u.
CCn1cnc2c(NCc3nc4cc(Cl)c(Cl)cc4[nH]3)nc(N3CCN(C(=O)c4cccnc4)CC3)nc21	92800 a.u. and 91100 a.u. and 104000 a.u.
CCn1cnc2c(NCc3nc4ccc(F)c(F)c4[nH]3)nc(N3CCn4ncnc4C3)nc21	465000 a.u. and 422000 a.u. and 479000 a.u.
CC(=O)N1CCN(c2nc(NCc3nc4cc(Cl)c(Cl)cc4[nH]3)c3ncn(C(C)C)c3n2)CC1	490000 a.u. and 486000 a.u. and 466000 a.u.
CC(=O)N1CCN(c2nc(NCc3nc4cc(Cl)c(Cl)cc4[nH]3)c3ncn(-c4cnn(C)c4)c3n2)CC1	446000 a.u. and 550000 a.u. and 461000 a.u.
CCn1cnc2c(NCc3nc4cc(Cl)c(Cl)cc4[nH]3)nc(N3CCN(c4ccccn4)CC3)nc21	435000 a.u. and 484000 a.u. and 472000 a.u.
CCn1cnc2c(NCc3nc4cc(Cl)c(Cl)cc4[nH]3)nc(N3CCN(C(=O)[C@H](C)NC(C)=O)CC3)nc21	483000 a.u. and 429000 a.u. and 516000 a.u.
CCn1cnc2c(NCc3nc4cc(Cl)c(Cl)cc4[nH]3)nc(N3CCN(C(=O)CNC(C)=O)CC3)nc21	239000 a.u. and 197000 a.u. and 210000 a.u.
CCn1cnc2c(NCc3nc4cc(Cl)c(Cl)cc4[nH]3)nc(N3CCN(C(=O)c4ccncc4)CC3)nc21	108000 a.u. and 95500 a.u. and 109000 a.u.

Block 3
Compound: Cc1ncsc1-c1ccc(C(CO)NC(=O)C2CC(O)CN2C(=O)C(C(C)C)n2cc(-c3ccc(COc4c(-c5c(C)c(F)cc6[nH]ncc56)c(C5CC5)cc5c(N6CC7CC6CN7)nc(OC6CCOCC6)nc45)cc3)nn2)cc1 (centres unmarked)
Route: intravenous
host	sample	dose	time	concentration
male Balb/c nu/nu mouse, PK-59 xenograft	pancreas	10 mg/kg	2 h	358 ng/g and 190 ng/g and 525 ng/g
male Balb/c nu/nu mouse, PK-59 xenograft	plasma	30 mg/kg	24 h	50.1 ng/mL and 77.1 ng/mL
mouse, PK-59 xenograft	pancreas	30 mg/kg	72 h	136 ng/g and 80.1 ng/g
male Balb/c nu/nu mouse, PK-59 xenograft	tumor	10 mg/kg	2 h	394 ng/g and 306 ng/g
male Balb/c nu/nu mouse (PK-59 xenograft)	pancreas	10 mg/kg	24 h	73.3 ng/g
mouse, PK-59 xenograft	pancreas	30 mg/kg	48 h	125 ng/g and 110 ng/g
male Balb/c nu/nu mouse, PK-59 xenograft	pancreas	30 mg/kg	2 h	1830 ng/g and 1700 ng/g
male Balb/c nu/nu mouse (PK-59 xenograft)	plasma	10 mg/kg	24 h	17.6 ng/mL

Block 4
Compound: CN(C)C/C=C/C(=O)NCCCN1c2ccccc2CCc2ccc(Cl)cc21
Target: E3 ubiquitin-protein ligase NEDD4, HECT domain (Homo sapiens, UniProt P46934)
Observed: enzyme activity
Mode: inhibitor
Method: Ub-TR-FRET
Sample: HECT domain
Reading: higher = more chain formation
Construct (P46934 938-1319, limits assumed): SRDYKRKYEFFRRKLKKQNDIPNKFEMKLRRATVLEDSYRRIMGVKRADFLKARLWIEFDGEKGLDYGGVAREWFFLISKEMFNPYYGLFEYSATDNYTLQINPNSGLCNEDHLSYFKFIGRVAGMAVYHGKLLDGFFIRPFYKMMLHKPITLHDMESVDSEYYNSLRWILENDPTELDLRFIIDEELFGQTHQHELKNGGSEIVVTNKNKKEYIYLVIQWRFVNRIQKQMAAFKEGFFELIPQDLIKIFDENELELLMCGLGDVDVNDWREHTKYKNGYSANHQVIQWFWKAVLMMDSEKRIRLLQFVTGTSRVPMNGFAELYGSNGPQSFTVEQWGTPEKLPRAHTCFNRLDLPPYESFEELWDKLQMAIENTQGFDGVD
tested at	ubiquitin chain formation AUC
0.005081 µM	129000 a.u. and 132000 a.u. and 130000 a.u.
0.4115 µM	131000 a.u. and 128000 a.u.
0.01524 µM	133000 a.u. and 130000 a.u.
33.33 µM	101000 a.u. and 99500 a.u. and 100000 a.u.
1.235 µM	130000 a.u. and 128000 a.u. and 129000 a.u.

Block 5
SMILES: Cc1ccc(O)c(C)c1-c1cnc2[nH]c(-c3cnc(N4CCC5(CC4)CC(N4CCN(c6ccc(N[C@H]7CCC(=O)NC7=O)cc6F)CC4)CO5)nc3)cc2c1C#N (single isomer, unassigned)
PKMYT1: Membrane-associated tyrosine- and threonine-specific cdc2-inhibitory kinase (PKMYT1, Homo sapiens, UniProt Q99640)
Sequence of UniProt Q99640 (whole entry, looked up): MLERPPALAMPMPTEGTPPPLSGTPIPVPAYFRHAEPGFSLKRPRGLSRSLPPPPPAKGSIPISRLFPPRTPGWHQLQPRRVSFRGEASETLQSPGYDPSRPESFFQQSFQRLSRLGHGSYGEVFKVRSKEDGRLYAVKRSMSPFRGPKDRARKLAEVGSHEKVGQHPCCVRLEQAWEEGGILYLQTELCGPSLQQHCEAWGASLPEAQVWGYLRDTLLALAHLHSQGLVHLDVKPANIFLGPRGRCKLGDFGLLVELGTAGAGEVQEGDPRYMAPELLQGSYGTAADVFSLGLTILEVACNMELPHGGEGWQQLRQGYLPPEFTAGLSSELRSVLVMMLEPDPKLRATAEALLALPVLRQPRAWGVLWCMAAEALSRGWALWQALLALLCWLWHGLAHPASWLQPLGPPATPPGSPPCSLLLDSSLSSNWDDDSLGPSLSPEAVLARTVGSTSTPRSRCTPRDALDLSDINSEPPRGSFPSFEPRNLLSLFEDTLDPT
target or system	observed	mode	tested at	inhibition
PKMYT1	enzyme activity	inhibitor	3.333 µM	99.1%
PKMYT1	enzyme activity	inhibitor	10 µM	100%
RKO	cell proliferation	–	41.15 nM	1.71% and -1.2%
PKMYT1	–	–	0.03704 µM	88.7%
PKMYT1	–	–	10000 nM	101% and 99.5%
PKMYT1	–	–	0.01235 µM	63%
PKMYT1	–	–	0.00046 µM	1.15% and -1.75%
PKMYT1	–	–	0.00137 µM	5.68% and 13.7%
HCC1806	cell proliferation	–	3333.33 nM	98.4%

Block 6
SMILES: C[C@@H]1CN(c2ccc(-c3cc(C(=O)NCCOCCOCCOCCOCCNC(=O)Cn4cc(-c5[nH]cc(C(=O)N[C@@H](CC(N)=O)c6ccc(F)c(Cl)c6)c5-c5ccc(Cl)cc5F)cn4)ccc3F)cc2NC(=O)c2c[nH]c(=O)cc2C(F)(F)F)C[C@H](C)N1C
Observed: thermal unfolding
Method: differential scanning fluorimetry
Tested at: 5.5 µM
Reading: higher = more unfolded
DCAF1: DDB1- and CUL4-associated factor 1 (DCAF1, Homo sapiens, UniProt Q9Y4B6)
Sequence of UniProt Q9Y4B6 (whole entry, looked up): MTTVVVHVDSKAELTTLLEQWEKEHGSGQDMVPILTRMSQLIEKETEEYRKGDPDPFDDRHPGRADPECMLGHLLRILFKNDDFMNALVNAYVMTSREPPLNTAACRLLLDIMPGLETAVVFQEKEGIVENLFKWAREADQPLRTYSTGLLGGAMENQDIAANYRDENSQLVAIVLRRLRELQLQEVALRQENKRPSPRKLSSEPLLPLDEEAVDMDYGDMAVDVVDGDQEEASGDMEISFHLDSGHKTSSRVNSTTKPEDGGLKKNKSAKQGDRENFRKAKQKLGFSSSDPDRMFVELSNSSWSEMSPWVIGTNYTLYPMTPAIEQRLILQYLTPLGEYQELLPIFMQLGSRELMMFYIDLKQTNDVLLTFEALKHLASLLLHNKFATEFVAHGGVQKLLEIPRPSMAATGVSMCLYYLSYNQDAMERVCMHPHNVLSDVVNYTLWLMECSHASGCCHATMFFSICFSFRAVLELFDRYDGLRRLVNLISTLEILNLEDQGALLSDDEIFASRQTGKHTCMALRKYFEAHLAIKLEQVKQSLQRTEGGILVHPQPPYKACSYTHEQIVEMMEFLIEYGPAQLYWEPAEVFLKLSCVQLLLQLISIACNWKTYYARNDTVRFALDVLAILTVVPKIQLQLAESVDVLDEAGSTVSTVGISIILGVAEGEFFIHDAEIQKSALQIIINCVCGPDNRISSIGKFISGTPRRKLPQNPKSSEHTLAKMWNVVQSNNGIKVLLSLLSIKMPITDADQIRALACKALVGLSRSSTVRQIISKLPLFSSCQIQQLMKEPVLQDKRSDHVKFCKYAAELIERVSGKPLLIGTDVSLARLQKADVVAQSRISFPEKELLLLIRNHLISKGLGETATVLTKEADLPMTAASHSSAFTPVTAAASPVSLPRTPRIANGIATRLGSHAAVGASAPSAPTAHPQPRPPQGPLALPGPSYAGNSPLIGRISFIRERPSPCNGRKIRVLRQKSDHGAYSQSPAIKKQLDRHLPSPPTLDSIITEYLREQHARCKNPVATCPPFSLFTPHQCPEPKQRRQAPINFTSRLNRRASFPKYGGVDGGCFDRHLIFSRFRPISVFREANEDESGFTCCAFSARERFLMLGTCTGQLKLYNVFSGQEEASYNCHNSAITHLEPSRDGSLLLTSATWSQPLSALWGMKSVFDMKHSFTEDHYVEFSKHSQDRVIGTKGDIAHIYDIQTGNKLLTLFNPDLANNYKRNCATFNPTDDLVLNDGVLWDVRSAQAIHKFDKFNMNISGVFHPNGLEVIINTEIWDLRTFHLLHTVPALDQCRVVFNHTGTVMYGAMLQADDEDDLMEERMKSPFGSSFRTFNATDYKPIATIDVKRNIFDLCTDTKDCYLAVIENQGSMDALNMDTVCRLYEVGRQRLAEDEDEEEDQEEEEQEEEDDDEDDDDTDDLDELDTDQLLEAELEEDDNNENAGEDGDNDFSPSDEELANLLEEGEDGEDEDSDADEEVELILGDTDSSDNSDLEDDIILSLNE
WDR5: WD repeat-containing protein 5 (WDR5, Homo sapiens, UniProt P61964)
target	temperature	SYPRO Orange fluorescence [a.u.]
DCAF1	44.6 °C	12100
DCAF1	82.81 °C	41800
WDR5	27.4 °C	14800
WDR5	50 °C	14500
WDR5	63.41 °C	8550
WDR5	41.2 °C	14200
WDR5	49.4 °C	14500

Block 7
Structure (SMILES): CCC1(c2cccc(-c3cn(C)nc3C)c2)C2=C(Nc3n[nH]cc31)C(F)C(C)(C)CC2=O (single isomer, unassigned)
Tested at: 1 µM
target	observed	method	relative to	remaining binding
Glycogen synthase kinase-3 alpha (GSK3A, Homo sapiens, UniProt P49840)	binding	competition with immobilised ligand	–	0%
Tyrosine-protein kinase JAK2 (JAK2, Homo sapiens, UniProt O60674)	kinase binding	KINOMEscan	DMSO control	97%
Cyclin-dependent kinase 4, with cyclin D3 (CDK4, Homo sapiens, UniProt P11802)	kinase binding	KINOMEscan	DMSO control	100%
Tyrosine-protein kinase Yes (YES1, Homo sapiens, UniProt P07947)	kinase binding	KINOMEscan	DMSO control	100%
Macrophage-stimulating protein receptor (MST1R, Homo sapiens, UniProt Q04912)	binding	competition with immobilised ligand	–	68%
Phosphatidylinositol 4-phosphate 5-kinase type-1 alpha (PIP5K1A, Homo sapiens, UniProt Q99755)	binding	competition with immobilised ligand	–	96%
Serine/threonine-protein kinase 32C (STK32C, Homo sapiens, UniProt Q86UX6)	kinase binding	KINOMEscan	DMSO control	100%
Insulin receptor-related protein (INSRR, Homo sapiens, UniProt P14616)	kinase binding	KINOMEscan	DMSO control	100%
Serine/threonine-protein kinase 17A (STK17A, Homo sapiens, UniProt Q9UEE5)	binding	competition with immobilised ligand	–	100%
Tyrosine-protein kinase HCK (HCK, Homo sapiens, UniProt P08631)	kinase binding	KINOMEscan	DMSO control	100%
Serine/threonine-protein kinase Nek7 (NEK7, Homo sapiens, UniProt Q8TDX7)	binding	competition with immobilised ligand	–	100%
Serine/threonine-protein kinase TAO2 (TAOK2, Homo sapiens, UniProt Q9UL54)	binding	competition with immobilised ligand	–	93%
Mitogen-activated protein kinase 7 (MAPK7, Homo sapiens, UniProt Q13164)	kinase binding	KINOMEscan	DMSO control	100%

Excerpt of the above (block 3):
host	sample	dose	time	concentration
male Balb/c nu/nu mouse, PK-59 xenograft	pancreas	10 mg/kg	2 h	358 ng/g and 190 ng/g and 525 ng/g
male Balb/c nu/nu mouse, PK-59 xenograft	plasma	30 mg/kg	24 h	50.1 ng/mL and 77.1 ng/mL
mouse, PK-59 xenograft	pancreas	30 mg/kg	72 h	136 ng/g and 80.1 ng/g
male Balb/c nu/nu mouse, PK-59 xenograft	tumor	10 mg/kg	2 h	394 ng/g and 306 ng/g
male Balb/c nu/nu mouse (PK-59 xenograft)	pancreas	10 mg/kg	24 h	73.3 ng/g
mouse, PK-59 xenograft	pancreas	30 mg/kg	48 h	125 ng/g and 110 ng/g
male Balb/c nu/nu mouse, PK-59 xenograft	pancreas	30 mg/kg	2 h	1830 ng/g and 1700 ng/g
male Balb/c nu/nu mouse (PK-59 xenograft)	plasma	10 mg/kg	24 h	17.6 ng/mL
